Experimental data from different studies.
Each line is one published result; not all experiments were run side by side. ± gives the spread as reported.

Compound = C[C@@](O)(C(F)F)[C@H](NC(=O)c1ccc(C#CC#CC2CC2)cc1)C(=O)NO; system = CD-1 mouse; conditions = oral, 40 mg/kg, fasted; Cmax = 14700 ± 2700 ng/mL
Compound = CCCCCCCC/C=C\CCCCCCCCOP(O)(O)=S.N; system = mouse, female, nonirradiated; conditions = sc, dose not given; Cmax = 302 ng/mL
Compound = C/C(=N\OCCCN1CCCCC1)c1ccc(C(F)(F)F)cc1; system = C57BL/6 mouse; conditions = intravenous, 5 mg/kg; Cmax = 279 ± 4.51 ng/mL
Compound = CN1CCN(c2cccc(Nc3cc4c(cn3)cc(-c3cccc(O)c3)c(=O)n4C)c2)CC1; system = mouse; conditions = intraperitoneal, 30 mg/kg/day; Cmax = 42 µM
Compound = N#CC1(c2ccc3c(N)ncnn23)OC(COP(=O)(O)OP(=O)(O)OP(=O)(O)O)C(O)C1O (stereo not shown); assay = LC-MS/MS; system = CD-1 mouse, kidney; conditions = oral, 100 mg/kg of remdesivir; Cmax = 1390 nmol/kg
Compound = CC(C)N1CCCCC1C(=O)NC(Cc1ccc(-c2ccccc2)cc1)B(O)O (stereo not shown); system = SCID mouse, P. falciparum model, blood; conditions = oral, 25 mg/kg once daily for 4 days, 1 h; Cmax = 0.609 µM
Compound = CCC(CC)OC1C=C(C(=O)OC(C)OC(=O)C(N)C(C)C)CC(NC(=N)N)C1NC(C)=O (mixture of isomers); system = mouse (fasted), plasma; conditions = oral, 10 mg/kg; Cmax = 541 ± 227 ng/mL
Compound = CC[C@H](C)[C@H](NC(=O)CNC(=O)[C@@H](NC(=O)[C@H](Cc1ccc(O)cc1)NC(=O)[C@@H](NC(=O)[C@H](CO)NC(=O)[C@@H](NC(=O)[C@H](C)NC(=O)[C@@H]1CCCN1C(=O)[C@@H](NC(=O)[C@H](Cc1ccccc1)NC(=O)[C@H](CCCCN)NC(=O)[C@H](CCC(=O)O)NC(=O)[C@H](Cc1ccc(O)cc1)NC(=O)[C@H](CC(C)C)NC(=O)[C@H](CC(=O)O)NC(=O)[C@H](CCCNC(=N)N)NC(=O)[C@H](CC(C)C)NC(=O)[C@H](CCCCN)NC(=O)[C@H](CCC(=O)O)NC(=O)[C@H](Cc1ccccc1)NC(=O)[C@@H](NC(=O)[C@H](CCC(=O)O)NC(=O)[C@H](CCCCN)NC(=O)[C@H](CC(C)C)NC(=O)[C@H](Cc1ccc(O)cc1)NC(=O)[C@@H](N)CC(=O)O)C(C)C)[C@@H](C)O)C(C)C)[C@@H](C)O)[C@@H](C)O)C(=O)N[C@@H](Cc1ccccc1)C(=O)N[C@H](C(=O)N[C@@H](CC(=O)O)C(=O)N[C@@H](CCC(N)=O)C(=O)N[C@H](C(=O)N[C@@H](CC(C)C)C(=O)N[C@@H](CO)C(=O)N[C@H](C(=O)N[C@@H](CC(C)C)C(=O)N[C@@H](CCCCN)C(=O)NCC(=O)N[C@@H](CCC(=O)O)C(=O)N[C@@H](CCC(=O)O)C(=O)O)C(C)C)C(C)C)[C@@H](C)O; system = C57BL/6 mouse, plasma; conditions = subcutaneous, 10 mg/kg; Cmax = 150000 ng/mL
Compound = CC(=O)N[C@@H](Cc1ccc(O)cc1)C(=O)N[C@@H](CC(C)C)C(=O)N[C@@H](CS)C(=O)N[C@@H](CO)C(=O)N[C@@H](CO)C(=O)N[C@@H](CC(N)=O)C(=O)N[C@@H](CC(N)=O)C(=O)N[C@@]1(C)CCCC=CCCC[C@@](C)(C(=O)N[C@@H](CCCCN)C(=O)N[C@@H](Cc2ccccc2)C(=O)N[C@@H](CCCNC(=N)N)C(=O)N[C@@H](CCCNC(=N)N)C(=O)NCC(=O)NCC(=O)N[C@@H](CO)C(=O)NCC(=O)NCC(=O)N[C@H](C(=O)N[C@@H](CO)C(=O)N[C@@H](Cc2ccccc2)C(=O)N[C@@]2(C)CCCC=CCCC[C@@](C)(C(=O)N[C@@H](Cc3c[nH]c4ccccc34)C(=O)N[C@@H](CC(C)C)C(=O)N[C@@H](Cc3c[nH]c4ccccc34)C(=O)N3CCC[C@H]3C(N)=O)NC(=O)[C@H](Cc3c[nH]c4ccccc34)NC(=O)[C@H](Cc3ccccc3)NC(=O)[C@H](CCC(N)=O)NC2=O)[C@@H](C)O)NC(=O)[C@H](CCCNC(=N)N)NC(=O)[C@H](CCC(=O)O)NC(=O)[C@H](CCCNC(=N)N)NC1=O; system = C57BL/6J mouse, male, plasma; conditions = intraperitoneal, dose not given; Cmax = 104000 ng/mL
Compound = CC(C)(CCCC/C=C/CCCCCC(C)(C)C(=O)O)C(=O)O; system = ICR mouse, plasma; conditions = oral, 10 mg/kg; Cmax = 25600 ng/mL

Some of these lines once more:
Compound = C/C(=N\OCCCN1CCCCC1)c1ccc(C(F)(F)F)cc1; system = C57BL/6 mouse; conditions = intravenous, 5 mg/kg; Cmax = 279 ± 4.51 ng/mL
